Assay results from different studies.
Lines come from different studies, so protocols differ. Numbers after ± are the reported error.
CLK3: Dual specificity protein kinase CLK3 (CLK3, Homo sapiens, UniProt P49761)
Chain of UniProt P49761 (whole entry, looked up): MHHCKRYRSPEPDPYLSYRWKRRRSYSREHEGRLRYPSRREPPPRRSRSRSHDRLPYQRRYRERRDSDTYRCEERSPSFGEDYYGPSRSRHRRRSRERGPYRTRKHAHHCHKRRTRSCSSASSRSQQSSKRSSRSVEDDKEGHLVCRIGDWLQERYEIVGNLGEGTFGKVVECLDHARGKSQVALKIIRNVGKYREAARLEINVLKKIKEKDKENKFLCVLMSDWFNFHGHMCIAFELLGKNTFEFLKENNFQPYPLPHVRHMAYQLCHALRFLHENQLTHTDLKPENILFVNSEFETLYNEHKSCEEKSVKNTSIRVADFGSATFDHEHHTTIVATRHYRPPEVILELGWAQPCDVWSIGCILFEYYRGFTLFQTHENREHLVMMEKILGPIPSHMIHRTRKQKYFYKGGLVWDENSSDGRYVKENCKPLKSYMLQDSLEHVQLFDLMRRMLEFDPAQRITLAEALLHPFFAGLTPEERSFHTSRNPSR
MAP3K20: Mitogen-activated protein kinase kinase kinase 20 (MAP3K20, Homo sapiens, UniProt Q9NYL2)
Chain of UniProt Q9NYL2 (whole entry, looked up): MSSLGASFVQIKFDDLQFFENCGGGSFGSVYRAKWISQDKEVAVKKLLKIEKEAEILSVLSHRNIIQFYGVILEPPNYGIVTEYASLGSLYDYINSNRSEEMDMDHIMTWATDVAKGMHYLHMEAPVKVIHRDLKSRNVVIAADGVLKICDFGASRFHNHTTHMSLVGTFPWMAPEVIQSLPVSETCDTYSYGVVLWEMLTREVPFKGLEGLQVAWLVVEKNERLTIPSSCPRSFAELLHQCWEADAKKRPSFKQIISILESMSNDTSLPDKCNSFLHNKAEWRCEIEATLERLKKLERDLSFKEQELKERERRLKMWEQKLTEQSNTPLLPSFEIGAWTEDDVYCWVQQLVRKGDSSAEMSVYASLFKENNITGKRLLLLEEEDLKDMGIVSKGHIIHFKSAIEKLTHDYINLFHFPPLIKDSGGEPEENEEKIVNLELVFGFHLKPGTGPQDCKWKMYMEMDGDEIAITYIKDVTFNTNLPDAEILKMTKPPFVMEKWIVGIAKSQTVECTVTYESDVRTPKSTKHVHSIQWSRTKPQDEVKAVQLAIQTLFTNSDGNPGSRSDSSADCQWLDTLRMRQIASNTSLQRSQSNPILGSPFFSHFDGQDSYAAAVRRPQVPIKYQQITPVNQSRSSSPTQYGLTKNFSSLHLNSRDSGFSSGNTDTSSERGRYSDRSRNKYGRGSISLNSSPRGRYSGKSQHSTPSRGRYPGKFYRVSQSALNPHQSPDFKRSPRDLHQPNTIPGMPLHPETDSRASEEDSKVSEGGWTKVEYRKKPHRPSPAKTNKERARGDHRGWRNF
Chain of UniProt P33424 (whole entry, looked up): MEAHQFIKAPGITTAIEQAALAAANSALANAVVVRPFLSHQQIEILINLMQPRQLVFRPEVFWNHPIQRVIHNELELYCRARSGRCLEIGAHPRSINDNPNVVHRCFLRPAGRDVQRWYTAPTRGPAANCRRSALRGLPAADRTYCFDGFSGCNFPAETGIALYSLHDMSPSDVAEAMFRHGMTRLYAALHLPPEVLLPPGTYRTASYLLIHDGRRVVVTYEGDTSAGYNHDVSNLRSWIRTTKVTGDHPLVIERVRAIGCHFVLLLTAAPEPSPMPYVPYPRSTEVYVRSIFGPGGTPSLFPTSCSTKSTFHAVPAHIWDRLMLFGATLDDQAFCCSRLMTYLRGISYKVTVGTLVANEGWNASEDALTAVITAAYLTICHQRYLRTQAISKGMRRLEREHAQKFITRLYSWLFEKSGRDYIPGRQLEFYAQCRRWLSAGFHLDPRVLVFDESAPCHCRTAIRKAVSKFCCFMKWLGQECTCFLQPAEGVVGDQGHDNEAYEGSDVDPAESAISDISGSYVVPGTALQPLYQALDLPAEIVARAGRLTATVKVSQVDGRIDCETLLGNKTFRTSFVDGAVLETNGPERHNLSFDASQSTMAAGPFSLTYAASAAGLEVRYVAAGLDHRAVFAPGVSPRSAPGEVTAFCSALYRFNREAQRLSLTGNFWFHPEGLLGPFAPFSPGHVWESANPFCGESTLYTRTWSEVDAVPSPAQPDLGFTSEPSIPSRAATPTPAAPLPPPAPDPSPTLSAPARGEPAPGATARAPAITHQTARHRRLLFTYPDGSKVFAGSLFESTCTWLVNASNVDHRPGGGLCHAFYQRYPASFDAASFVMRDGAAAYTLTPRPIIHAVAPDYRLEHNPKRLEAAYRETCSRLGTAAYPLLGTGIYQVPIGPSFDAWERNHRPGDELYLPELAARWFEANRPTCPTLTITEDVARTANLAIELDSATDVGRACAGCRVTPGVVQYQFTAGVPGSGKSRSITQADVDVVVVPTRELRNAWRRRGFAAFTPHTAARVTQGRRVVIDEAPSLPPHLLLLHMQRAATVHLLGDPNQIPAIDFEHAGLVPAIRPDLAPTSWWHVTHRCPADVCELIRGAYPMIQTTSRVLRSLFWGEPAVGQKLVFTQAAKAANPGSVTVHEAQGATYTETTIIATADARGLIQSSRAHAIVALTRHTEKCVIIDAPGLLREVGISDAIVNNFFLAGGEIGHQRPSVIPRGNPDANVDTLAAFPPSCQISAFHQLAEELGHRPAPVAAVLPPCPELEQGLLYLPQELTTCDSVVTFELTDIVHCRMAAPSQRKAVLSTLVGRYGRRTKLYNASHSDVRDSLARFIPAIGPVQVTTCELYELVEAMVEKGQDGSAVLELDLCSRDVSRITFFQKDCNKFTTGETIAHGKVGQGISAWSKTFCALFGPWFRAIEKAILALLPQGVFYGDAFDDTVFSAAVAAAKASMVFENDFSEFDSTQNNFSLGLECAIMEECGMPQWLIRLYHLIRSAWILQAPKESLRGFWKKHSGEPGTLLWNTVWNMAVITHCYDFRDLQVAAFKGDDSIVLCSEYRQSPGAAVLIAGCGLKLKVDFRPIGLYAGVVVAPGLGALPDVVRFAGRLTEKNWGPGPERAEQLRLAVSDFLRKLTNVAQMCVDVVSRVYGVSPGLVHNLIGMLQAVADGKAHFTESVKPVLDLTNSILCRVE
Chain of UniProt P48067 (whole entry, unmodified, looked up): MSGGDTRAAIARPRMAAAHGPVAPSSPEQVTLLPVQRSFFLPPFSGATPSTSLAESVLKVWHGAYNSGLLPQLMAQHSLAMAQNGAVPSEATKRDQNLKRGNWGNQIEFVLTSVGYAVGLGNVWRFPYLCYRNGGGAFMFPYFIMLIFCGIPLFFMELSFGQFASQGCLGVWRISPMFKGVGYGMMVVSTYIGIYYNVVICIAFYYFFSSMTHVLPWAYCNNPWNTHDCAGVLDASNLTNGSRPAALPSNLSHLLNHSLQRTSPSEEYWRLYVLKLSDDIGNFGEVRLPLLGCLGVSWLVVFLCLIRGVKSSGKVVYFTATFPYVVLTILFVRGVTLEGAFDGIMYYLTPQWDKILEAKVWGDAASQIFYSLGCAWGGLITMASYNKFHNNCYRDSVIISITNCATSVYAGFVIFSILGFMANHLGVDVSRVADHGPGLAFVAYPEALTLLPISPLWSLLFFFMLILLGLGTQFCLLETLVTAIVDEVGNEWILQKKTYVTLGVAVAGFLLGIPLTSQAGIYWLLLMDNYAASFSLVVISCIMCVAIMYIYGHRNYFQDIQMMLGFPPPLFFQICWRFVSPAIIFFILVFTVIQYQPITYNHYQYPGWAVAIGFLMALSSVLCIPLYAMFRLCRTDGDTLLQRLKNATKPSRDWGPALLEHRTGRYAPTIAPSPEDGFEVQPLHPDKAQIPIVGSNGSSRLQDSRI
Chain of UniProt O75116 (whole entry, looked up): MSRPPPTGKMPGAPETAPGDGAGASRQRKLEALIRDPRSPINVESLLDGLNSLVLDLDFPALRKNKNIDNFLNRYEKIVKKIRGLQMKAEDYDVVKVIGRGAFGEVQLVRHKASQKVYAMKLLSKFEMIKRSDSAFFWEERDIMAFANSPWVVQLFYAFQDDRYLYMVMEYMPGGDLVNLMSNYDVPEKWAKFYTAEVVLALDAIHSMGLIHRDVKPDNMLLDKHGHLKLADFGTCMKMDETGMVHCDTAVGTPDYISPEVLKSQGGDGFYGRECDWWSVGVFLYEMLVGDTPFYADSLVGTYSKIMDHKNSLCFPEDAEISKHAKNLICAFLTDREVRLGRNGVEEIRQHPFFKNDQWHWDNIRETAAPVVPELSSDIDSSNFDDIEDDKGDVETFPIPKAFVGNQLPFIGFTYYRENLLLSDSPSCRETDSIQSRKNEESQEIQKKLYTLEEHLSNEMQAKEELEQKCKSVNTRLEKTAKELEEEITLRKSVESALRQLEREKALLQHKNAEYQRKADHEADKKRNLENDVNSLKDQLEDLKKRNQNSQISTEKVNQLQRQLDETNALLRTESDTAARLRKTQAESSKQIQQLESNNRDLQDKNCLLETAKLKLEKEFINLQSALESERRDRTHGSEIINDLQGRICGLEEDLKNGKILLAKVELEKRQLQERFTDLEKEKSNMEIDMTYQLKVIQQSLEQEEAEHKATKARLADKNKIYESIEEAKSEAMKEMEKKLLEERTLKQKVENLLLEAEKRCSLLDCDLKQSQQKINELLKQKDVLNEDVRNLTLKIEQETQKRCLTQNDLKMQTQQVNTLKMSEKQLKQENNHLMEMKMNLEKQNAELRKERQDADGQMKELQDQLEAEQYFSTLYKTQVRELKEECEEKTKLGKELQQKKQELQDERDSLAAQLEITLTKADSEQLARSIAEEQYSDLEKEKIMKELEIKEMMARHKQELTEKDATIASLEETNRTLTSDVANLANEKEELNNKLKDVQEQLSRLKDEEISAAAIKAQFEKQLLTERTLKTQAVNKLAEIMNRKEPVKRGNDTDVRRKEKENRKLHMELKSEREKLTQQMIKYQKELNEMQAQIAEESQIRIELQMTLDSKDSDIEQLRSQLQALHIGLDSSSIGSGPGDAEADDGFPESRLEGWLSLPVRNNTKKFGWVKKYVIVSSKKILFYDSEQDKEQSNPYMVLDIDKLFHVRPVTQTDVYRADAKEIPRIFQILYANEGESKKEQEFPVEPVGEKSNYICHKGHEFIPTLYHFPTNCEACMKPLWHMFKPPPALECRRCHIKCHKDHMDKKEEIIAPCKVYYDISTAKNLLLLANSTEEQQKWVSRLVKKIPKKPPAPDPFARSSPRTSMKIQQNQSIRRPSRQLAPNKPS

SMILES	tested on	test	setting	scale	endpoint	value
COc1cc(-c2cncc3c2CN(C)Cc2cc(N4CCNCC4)ccc2-3)cc(OC)c1OC	Serine/threonine-protein kinase pim-3 (PIM3, Homo sapiens, UniProt Q86V86)	kinase activity	1 µM, human enzyme, with: ATP 10 µM	baseline: DMSO control	remaining activity	103%
O=C(NC1CCC1)c1ccc2nc(-c3cccc(NS(=O)(=O)NCCN4CCCCC4)c3)cn2c1	CLK3	enzyme activity	10 µM	–	remaining activity	100%
COc1cc(Nc2ncc3c(n2)-c2ccc(Cl)cc2C(c2c(F)cccc2OC)=NC3)ccc1C(=O)O	AKT3 (PKB gamma)	enzyme activity	1 µM	–	remaining activity	107%
CO[C@H]1/C=C/O[C@@]2(C)Oc3c(C)c(O)c4c(O)c(c(/C=N/N5CCN(C)CC5)c(O)c4c3C2=O)NC(=O)/C(C)=C\C=C\[C@H](C)[C@H](O)[C@@H](C)[C@@H](O)[C@@H](C)[C@H](OC(C)=O)[C@@H]1C	human iPSC-derived cardiomyocytes	MyBP-C/MYH ratio, plate-normalised SD score	concentration not given, primary screen	direction not given	activity score	3.4
Cc1cc(Nc2cc(N3CCN(C)CC3)nc(Sc3ccc(NC(=O)C4CC4)cc3)n2)[nH]n1	CLK3	kinase activity, KinaseProfiler	0.03 µM, species human	baseline: control	remaining activity	93%
O=C(NC(Cc1cc(=O)[nH]c2ccccc12)C(=O)O)c1ccc(Cl)cc1 (stereo not shown)	human iPSC-derived cardiomyocytes	MyBP-C/MYH ratio, plate-normalised SD score	concentration not given, primary screen	direction not given	activity score	14.2
O=[N+]([O-])c1ccc(N=Nc2c(O)ccc3ccccc23)c([N+](=O)[O-])c1	fdhA (Pseudomonas putida, UniProt P46154)	–	concentration not given, no demethylase	–	remaining activity	> 80%
C1=C/COCc2cc(ccc2OCCN2CCCC2)Nc2nccc(n2)-c2cccc(c2)COC/1	Epidermal growth factor receptor (EGFR, Homo sapiens, UniProt P00533, G719C)	–	concentration not given	baseline: untreated control	remaining activity	75%
C=CC(=O)N1CCC[C@@H](n2nc(-c3ccc(Oc4ccccc4)cc3)c3c(N)ncnc32)C1	Dual specificity testis-specific protein kinase 2 (TESK2, Homo sapiens, UniProt Q96S53)	–	1 µM	–	remaining activity	83.5%
C[C@@H](Oc1ccc(S(C)(=O)=O)cc1C(=O)N1C[C@@H]2C[C@]2(c2cc(C(F)(F)F)on2)C1)C(F)(F)F	Sodium- and chloride-dependent glycine transporter 1 (SLC6A9, Homo sapiens, UniProt P48067, L476T)	glycine uptake, inhibitor, [3H]glycine uptake	0.002 µM, L422T mutant, log concentration 2, with: [3H]glycine	baseline: no inhibitor	remaining activity	95.7%
C=CC(=O)N1CCC[C@@H](n2nc(-c3ccc(Oc4ccccc4)cc3)c3c(N)ncnc32)C1	MAP3K20	kinase activity, inhibitor, HotSpot radiometric	100 nM, with: ATP 10 µM	–	remaining activity	79.3 ± 0.2%
O=C1NC(=O)/C(=C/c2ccc(-c3ccc(F)cc3O)o2)S1	Rho-associated protein kinase 2 (ROCK2, Homo sapiens, UniProt O75116)	enzyme activity	10 µM	–	remaining activity	70%
CC(C)C(=O)Nc1n[nH]c2cc(-c3cccc(NS(=O)(=O)C4CC4)c3)ccc12	Phosphatidylinositol 4-phosphate 5-kinase type-1 gamma (PIP5K1C, Homo sapiens, UniProt O60331)	ADP-Glo	4.57 nM	baseline: DMSO	remaining activity	102%
O=C(O)c1ccc(Nc2ncc3c(n2)-c2ccc(Cl)cc2C(c2c(F)cccc2F)=NC3)cc1	CaMKIIδ(h)	kinase activity	1 µM	–	remaining activity	123%
CNc1ncc2c(/C=C/C(=O)N3CCC(OC)CC3)nn(Cc3cccc(C(F)(F)F)c3)c2n1	cAMP-dependent protein kinase catalytic subunit PRKX (PRKX, Homo sapiens, UniProt P51817)	kinase activity, inhibitor	1 µM	baseline: untreated control	remaining activity	101%
COc1cc(N2CCN(C)CC2)ccc1Nc1nc(N)n(C(=S)NCc2c(Cl)cccc2Cl)n1	Misshapen-like kinase 1 (MINK1, Homo sapiens, UniProt Q8N4C8)	enzyme activity	10 µM	baseline: control	remaining activity	2.8%
c1cnc2ccc(Nc3nc(NC4CC4)c4nc[nH]c4n3)cc2c1	RAC-gamma serine/threonine-protein kinase (AKT3, Homo sapiens, UniProt Q9Y243)	kinase activity, inhibitor, SelectScreen kinase profiling	1 µM	baseline: control	remaining activity	104%
COc1cc(F)ccc1-c1ncnc(Nc2cccc(C[S@](C)(=N)=O)c2)n1	CLK3	kinase activity	10 µM, with: 10 µM ATP	–	remaining activity	93%
Cn1cc(-c2ccc(-c3cncc(Cl)c3N3CCC4(CCNC4=O)CC3)cc2)cn1	COLO 205	gene expression, microarray, refers to: GLS mRNA	concentration not given, 6 h	baseline: untreated cells	log2 fold change	1.56
CCCCCCCCCCCCCCNC(=O)/C=C/c1ccc(O)c(O)c1	Pancreatic alpha-amylase (AMY2, Sus scrofa, UniProt P00690)	enzyme activity	10 µM, with: α-glucosidase present	–	remaining activity	79.2 ± 1.42%
CC#CC(=O)N1CCC[C@H]1c1nc(-c2ccc(C(=O)Nc3ccccn3)cc2)c2c(N)nccn12	MAP3K20	kinase activity, inhibitor, HotSpot radiometric	100 nM, with: ATP 10 µM	–	remaining activity	105 ± 3.5%
CC(C)OCCn1c(=S)[nH]c(=O)c2[nH]ccc21	Myeloperoxidase (MPO, Homo sapiens, UniProt P05164)	chlorination activity	0.3125 µM, 0.1 h, with: iodide, TMB	–	remaining activity	67.7%
Cc1cccc(C)c1C(=O)OCC(=O)[C@H](CCCCN)NC(=O)[C@H](CCCNC(=N)N)NC(=O)OCc1ccccc1	Pro-cathepsin H (Ctsh, Mus musculus, UniProt P49935)	inhibitor	10 µM, with: AMC fluorogenic substrate	baseline: untreated	remaining activity	100%
NC/C(=C\F)COc1cccc(Cn2c(=S)[nH]c(=O)c3[nH]cnc32)c1	Peroxidasin homolog (PXDN, Homo sapiens, UniProt Q92626)	Amplex UltraRed	1.25 µM	baseline: control	remaining activity	95.8%
NC(=O)c1ncn([C@@H]2O[C@H](CO[P@@](=O)(O)O[P@](=O)(O)OP(=O)(O)O)[C@@H](O)[C@H]2O)n1	Non-structural polyprotein pORF1, RNA-dependent RNA polymerase (Hepatitis E virus genotype 1, UniProt P33424)	polymerase activity, inhibitor, colorimetric	14 µM	baseline: untreated	remaining activity	84.2%
